Measured values from different studies.
Every numbered part comes from another study and shows a few of its results, in no order. Positions count from the first letter of the parent shown.

Sample 1
Target: RNA binding protein fox-1 homolog 2, RRM domain, GST-SBP tag (RBFOX2, Homo sapiens, UniProt O43251-10, residues 100-194)
Technique: RNA Bind-n-Seq
Molecule type: RNA
Matrix: in vitro
Tested at: 365 nM
Setting: natural RNA segment, single round, ends assumed
Baseline: no-protein control
Direction: higher = stronger binding
Constant ends, left off below: GGGAGUUCUACAGUCCGACGAUC … UGGAAUUCUCGGGUGCCAA
For `UCCAGCCUCUGCCUGUUACCCAGUUCCAAAGUCACUUCCACAUUUUGGGUAUUUCUUCAGCAGGUCCCAAUCUACUGGUACCAAUUUACUGUAUUAGUCCGUUUUCACGC`, “RBNS enrichment (R)” read 0.408.
For `AGAUUCUGAUGCCAGACUGUUAAAACAGGCGCUGGUUCUGAAGCACCGAUGGAAACAGAUUGAUGCAGAUGGAAGGAGGAAGGGAGACUGGGCCCACUGAUUUCCAGCCC`, “RBNS enrichment (R)” read 0.364.
Under “RBNS enrichment (R)”, `AUAGUUGAUGAGAACUAGACUUAUGACUGUAGUUUACUAGAGUUUAGUUUUCAGUUGCUGAAGUAGCUCAUUUUCUCUUACUAAUGUUUGGUUCCUCAGGGAAGAAUCUC` is recorded as 0.734.
`UGUUUGUGCGUCCUUCCUCCCAGCCGGUUCCCACCCUCCUAAGGGUUAUGCCAGUGGAUCUCACGCCUCUGUGCAUCACCUAUCUUUGGUUUGUGAAGGCAGCAGUUAAG` — result for “RBNS enrichment (R)”: 0.439.
`UCAGUUGACCUUUGUGGAGGUUUUAUCUAUAGAGUAGUUCUUGCCUUGUCAUAGACCUUAUUAGGGUUUGGGGUUUUGUUCCUUCGUUGUUUUCCUCUCACUAUUUAAAG`: “RBNS enrichment (R)” 0.559.
Under “RBNS enrichment (R)”, `CAGGGUUAGCGCCCAUGAAAGGGGACCGAGUGUAUGACAAUCUGCGUUGAUCAUGGACUACUAAAAUGCCUUCACACAGGAGGCUUUGACUUGCACAAUUCUUUGGGAAG` is recorded as 0.373.
Under “RBNS enrichment (R)”, `UGAAGGGUUUGGGGUAGCAUUCUGUUUUUUCUUUGCUUUUUCAUUUCUAGCAGAGGCAAGAAUACAUAUUCAUAUACGCUUACUUAUGAAUUACCAUUUUAACAUUUAGA` is recorded as 0.65.
Under “RBNS enrichment (R)”, `CACAUGUAAUAGACCCUUUAGCUUUAAUGAGCAGACAUGAGAAUGGUUUAUGAUCUUAAGUUGGUAACAUAGGAAUAUGUAUUUGUCAAUUUUAGUUCACAAACAUAUCC` is recorded as 0.521.
`GGUGUUUCCUGGCUGUUAUGACCUGCUGUCCACCCCUCCUCAACAUCGAGCUCUGUUGUAAAUACGUCGCACCAGAGGCCACUGUGAUGCCACUGUCUCCUCUCCAUCCC` — result for “RBNS enrichment (R)”: 0.587.
`UAUAGAAGAAUGCAUGCUUUCCAUAUUUUUUUCCUUACAUAAACAUCAGGUUAGGCAGUAUAAAGAAUAGGACUUGUUUUUGUUUUUGUUUUGUUGCACUGAAGUUUGAU`: “RBNS enrichment (R)” 12.2.
For `CAGUAUGAUGUUUCUAUUUUCCAAUACUGGUUCCCUAACGGUCAACAUUUCUUCUCCCAACUAAAAAUGUAAGAAGAAAAAAAAAUUUUUUUCUUUUUCUCUUUUUUUUU`, “RBNS enrichment (R)” read 0.678.
`GAGAAAGGAGACAGUAAGGUAUUUUGCCUGCCUUGUGAUGCCCUCCCCUGACCACCCUACCUUUUUGCAUCAAACACUGGGAAUGCUUCCUCAGUCCCUGCUCCAAACUA`: “RBNS enrichment (R)” 2.93.

Sample 2
Target: Histone acetyltransferase KAT6A, both winged helices, GST fusion (KAT6A, Homo sapiens, UniProt Q92794, residues 1-181)
Technique: protein binding microarray
Molecule type: double-stranded DNA, one strand shown
Matrix: in vitro
Tested at: not given
Setting: 8-mer, flanks averaged, mean of 2 arrays, mostly near background
Baseline: not given
Direction: higher = stronger binding
Residues (chain): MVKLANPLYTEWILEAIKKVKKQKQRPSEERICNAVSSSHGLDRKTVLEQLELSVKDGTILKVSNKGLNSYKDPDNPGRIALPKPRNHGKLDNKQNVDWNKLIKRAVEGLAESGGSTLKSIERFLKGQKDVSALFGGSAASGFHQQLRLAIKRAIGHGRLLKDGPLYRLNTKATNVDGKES
`ATACATGC` gave an E-score of -0.0945.
With `CGATGTAC` the E-score was 0.00326.
For `GTATAGAC`, the E-score was -0.0899.
`TTACGAAA` has an E-score of -0.0104.
`ACAGATGT` has an E-score of -0.0753.
`GTGAAGCA` has an E-score of 0.0131.
`AGACACGA` gave an E-score of 0.00829.
`CATTTCAC` gave an E-score of -0.0764.
`CTTTACAA` gave an E-score of -0.0501.
For `ATACAGTA`, the E-score was -0.033.
With `GTTACTCA` the E-score was 0.0147.
`AAGCTGCG` gave an E-score of 0.00862.
`AGTCCTTC` has an E-score of -0.096.
`AGCAACTA` has an E-score of -0.0423.
`CGGATCCC` gave an E-score of 0.18.
For `CTAAAGGA`, the E-score was -0.0213.
With `AGATGTGA` the E-score was -0.0199.
The E-score of `CCTGATGC` is reported as 0.0658.
The E-score of `ACTACGGC` is reported as 0.251.
`GCTAACAC` has an E-score of 0.00251.
`CATTAGAA` has an E-score of -0.0478.
With `CTTTTTTC` the E-score was -0.0368.
With `AAATAGTC` the E-score was -0.0324.
`GACGTCCC` gave an E-score of -0.0979.
`CGCAGCAA` has an E-score of 0.0498.

Sample 3
Target: CCND2, cyclin fold, Cln2 fusion (human)
Technique: yeast growth competition, sequencing
Matrix: yeast
Setting: weak parent motif
Baseline: not given
Direction: higher = stronger binding
Starting sequence: PKN2 docking peptide (human); VSAVQKLDFSDTM
`VSMVQKLDFSDTM [A3M]`: “normalised enrichment score” 0.165.
Under “normalised enrichment score”, `VSAVQILDFSDTM [K6I]` is recorded as 0.159.
`VSAIQKLDFSDTM [V4I]`: “normalised enrichment score” 0.761.
`ISAVQKLDFSDTM [V1I]`: “normalised enrichment score” 0.486.
For `VSAVQKLDKSDTM [F9K]`, “normalised enrichment score” read 0.0768.
Under “normalised enrichment score”, `VSAVQKLVFSDTM [D8V]` is recorded as 0.333.
Under “normalised enrichment score”, `VSAVQKLDFSMTM [D11M]` is recorded as 0.351.
Under “normalised enrichment score”, `VSAVQKLLFSDTM [D8L]` is recorded as 0.302.
`VSAVQELDFSDTM [K6E]`: “normalised enrichment score” 0.0339.
`VSAVQKLDFSDSM [T12S]`: “normalised enrichment score” 0.801.
For `SSAVQKLDFSDTM [V1S]`, “normalised enrichment score” read 0.714.
`VSAVQKLDESDTM [F9E]` — result for “normalised enrichment score”: 0.141.
For `VSAVQVLDFSDTM [K6V]`, “normalised enrichment score” read 0.282.
Under “normalised enrichment score”, `VHAVQKLDFSDTM [S2H]` is recorded as 0.418.
Under “normalised enrichment score”, `VEAVQKLDFSDTM [S2E]` is recorded as 0.02.
`VSAVQKGDFSDTM [L7G]`: “normalised enrichment score” -0.275.
`VSRVQKLDFSDTM [A3R]` — result for “normalised enrichment score”: 0.0928.
For `VSAGQKLDFSDTM [V4G]`, “normalised enrichment score” read -0.00341.

Sample 4
Target: Centromere-binding protein 1, full length, N-terminal tag (CBF1, Saccharomyces cerevisiae, UniProt P17106, residues 1-351)
UniProt P17106, sequence (whole entry, looked up): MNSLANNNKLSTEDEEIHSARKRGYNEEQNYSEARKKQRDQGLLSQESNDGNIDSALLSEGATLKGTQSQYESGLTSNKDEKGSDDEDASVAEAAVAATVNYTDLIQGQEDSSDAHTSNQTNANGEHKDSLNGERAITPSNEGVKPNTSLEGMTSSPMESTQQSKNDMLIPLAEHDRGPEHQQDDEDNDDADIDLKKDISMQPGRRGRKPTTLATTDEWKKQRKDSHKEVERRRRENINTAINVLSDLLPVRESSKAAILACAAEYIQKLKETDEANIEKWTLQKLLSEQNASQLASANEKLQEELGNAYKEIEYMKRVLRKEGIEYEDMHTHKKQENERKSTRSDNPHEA
Technique: protein-binding microarray
Molecule type: double-stranded DNA, one strand shown
Matrix: in vitro
Tested at: 0.8 µM
Setting: whole 60-bp probe, no competitor
Direction: higher = stronger binding
Constant ends, left off below: … GTCTTGATTCGCTTGACGCTGCTG
`GAAAGACTTCTCCATTTTCACGTGCTAAAAAAGTAG` has a fluorescence intensity of 8240 a.u.
For `GAAACAACAAGGCATCACCAGCTATAGATAATCTAG`, the fluorescence intensity was 511 a.u.
`TGTACGAAGCTATTACACGAGATTATAGTAGTTAGG` has a fluorescence intensity of 577 a.u.
For `CCTAACTACTATAATCACGTATTATAGCTTCGTACA`, the fluorescence intensity was 662 a.u.
With `TGTACGAAGCTATAGCACGACCATATAGTAGTTAGG` the fluorescence intensity was 516 a.u.
`GAATTTACAGGCTAAGTGGTGTCACTATCCCCATAG` gave a fluorescence intensity of 497 a.u.
`CTATAATGTGTATATAACGTGGTCTTAAATTATTTC` has a fluorescence intensity of 997 a.u.
With `GAACAAAATGTAACCTACATCATGCGTAGGCTTTAG` the fluorescence intensity was 543 a.u.
The fluorescence intensity of `GAAATATACCCGAATCAGGAGAAACAAAGGCGATAG` is reported as 535 a.u.
`GAAGTAAAGGACCATCACGCCACATCACGTGCATAG` has a fluorescence intensity of 14100 a.u.
The fluorescence intensity of `CTATTCTACAGCCCTGATGCAAGTGGAAGTTCTTTC` is reported as 526 a.u.
The fluorescence intensity of `GAACGCGTCACGCATCACCCGGCGCAGTATTTCTAG` is reported as 1240 a.u.
For `GAATATATACATGTCAACACCACCATGACTATATAG`, the fluorescence intensity was 557 a.u.
For `CCTAACTACTATAATGTGATTTGATAGCTTCGTACA`, the fluorescence intensity was 593 a.u.

Sample 5
Target: ABI1, truncated, D143A, DHFR fusion (Arabidopsis thaliana, UniProt P49597)
Technique: DHFR PCA, dose-response
Matrix: yeast
Setting: Hill fit, mean, not affinity
Added: (+)-ABA, dose series
Direction: lower = more sensitive
Starting sequence: PYL1, truncated, DHFR fusion (Arabidopsis thaliana, UniProt Q8VZS8); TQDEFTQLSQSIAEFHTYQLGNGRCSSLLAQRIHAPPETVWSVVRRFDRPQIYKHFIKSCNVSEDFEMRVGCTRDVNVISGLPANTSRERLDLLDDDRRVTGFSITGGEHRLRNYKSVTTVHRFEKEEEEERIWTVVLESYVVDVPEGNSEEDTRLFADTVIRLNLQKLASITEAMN
The ABA EC50 of `R98I` is reported as 11.5 µM.
For `A35E`, the ABA EC50 was 681 µM.
`H122M` has an ABA EC50 of 404 µM.
`T17A` has an ABA EC50 of 14.5 µM.
With `P146K` the ABA EC50 was 624 µM.
The ABA EC50 of `D92F` is reported as 137 µM.
With `V118C` the ABA EC50 was 2.81 µM.
The ABA EC50 of `I172T` is reported as 8.96 µM.
`R69T` gave an ABA EC50 of 2.09 µM.
With `L82T` the ABA EC50 was 146 µM.
`N77Y` has an ABA EC50 of 2.65 µM.
With `D75M` the ABA EC50 was 1.02 µM.
`I162V` gave an ABA EC50 of 1.21 µM.
`R111I` gave an ABA EC50 of 183 µM.
`V43N` gave an ABA EC50 of 250 µM.
With `P83Q` the ABA EC50 was 91.8 µM.
For `I172M`, the ABA EC50 was 8.39 µM.

A few entries again (sample 2):
`AAGCTGCG` gave an E-score of 0.00862.
`GCTAACAC` has an E-score of 0.00251.
The E-score of `CCTGATGC` is reported as 0.0658.
`CATTTCAC` gave an E-score of -0.0764.
`ATACATGC` gave an E-score of -0.0945.
`GTGAAGCA` has an E-score of 0.0131.
